Assay results gathered from unrelated publications.
Compare with care: the assays were run in different laboratories.

CN[C@@H](C)C(=O)N[C@H]1CN(S(=O)(=O)c2cccc(S(=O)(=O)N3CC[C@H]4CC[C@@H](C(=O)NC(c5ccccc5)c5ccccc5)N4C(=O)[C@@H](NC(=O)[C@H](C)NC)C3)c2)CC[C@H]2CC[C@@H](C(=O)NC(c3ccccc3)c3ccccc3)N2C1=O — patients with treatment-related asthenia (human, advanced solid tumours; 12 mg): 0%
Cn1cncc1-c1c(F)cncc1NC(=O)c1c(N)nn2cc(F)cnc12 — patients grade ≥3 Lymphocyte count decrease (human patients; oral, 180 mg once daily, 2 weeks on 1 week off): 14%
O=C1Nc2cc3[nH]nc(-c4ccncc4)c3cc2CN1Cc1ccccc1 — patients with retinal detachment (CTCAE v4.03; human, relapsed or refractory advanced solid tumours; intravenous, 4.8 mg/kg): 33%
COc1ccc(-c2c(-c3ccc(C#N)c(F)c3)nc(N3CCC(N)CC3)n(C)c2=O)cc1F — patients with serious TEAE (measured: pleural effusion; human patients; oral, 60 mg, dose expansion): 0%
C=CC(=O)Nc1cc(Nc2nccc(Nc3cc(Cl)c(F)cc3C(C)(C)O)n2)c(OC)cc1N1CC[C@@H](N(C)C)C1 — patients with anaemia (human patients; oral, 400 mg, treatment-emergent adverse events): 55%
Cc1cn([C@H]2O[C@@H](CO[P@@](=O)(N[C@@H](C)C(=O)OC(C)C)Oc3ccccc3)[C@H](O)[C@H]2F)c(=O)[nH]c1=O — patients with TEAE (measured: common cold; human; 25 mg): 0%
COc1ncnn2ccc(-c3cnc4nc(C)n(Cc5nnc([C@@H](C)F)o5)c4c3)c12 — patients with dehydration (human; oral, dose not given, grade 2): 14.3%
CNC(=O)c1cc(Oc2ccc(NC(=O)Nc3cc(C(C)(C)C)nn3-c3ccc4ncccc4c3)c(F)c2)ccn1 — patients with related serious Nausea AE (human, trial; oral, 150 mg twice daily, starting dose): 3%
CN(C)C(=O)c1cc2cnc(Nc3ccc(N4CCNCC4)cn3)nc2n1C1CCCC1 — patients with adverse event (measured: Neutropenia, AESI; human, HR+/HER2− advanced breast cancer; oral, dose not given, grade 3, CTCAE v4.03): 53.1%
C[C@@H]1OC(=O)NN=C1c1ccc(-c2ccc(F)cc2)c(C(F)(F)F)c1 — patients with adverse event (phase I trial, measured: Pneumonitis all grades; human patients; dose not given, all dose groups): 20%
C[C@]1(O)C[C@@](N)(c2ccc(-c3nc4n(c3-c3ccccc3)COc3ccncc3-4)cc2)C1 — patients with Hyperglycemia TEAE (human, advanced or metastatic solid tumours; 16 mg once daily, phase I dose escalation): 33.3%

For quick reference, copied from above:
CNC(=O)c1cc(Oc2ccc(NC(=O)Nc3cc(C(C)(C)C)nn3-c3ccc4ncccc4c3)c(F)c2)ccn1 — patients with related serious Nausea AE (human, trial; oral, 150 mg twice daily, starting dose): 3%
